{"data": "Results collected from several papers", "note": "Each numbered part is a random draw from the data of one study; scales do not carry over between parts."}
{"data": "Block 1", "target": "Protein C-ets-1 (ETS1, Homo sapiens, UniProt P14921, residues 1-441, full length assumed)", "technique": "protein-binding microarray", "form": "double-stranded DNA, one strand shown", "sample": "in vitro", "tested at": "not given", "setting": "k-mer, scored over probes, only values ≥0.25", "direction": "higher = stronger binding", "sequence of UniProt P14921 (whole entry, looked up)": "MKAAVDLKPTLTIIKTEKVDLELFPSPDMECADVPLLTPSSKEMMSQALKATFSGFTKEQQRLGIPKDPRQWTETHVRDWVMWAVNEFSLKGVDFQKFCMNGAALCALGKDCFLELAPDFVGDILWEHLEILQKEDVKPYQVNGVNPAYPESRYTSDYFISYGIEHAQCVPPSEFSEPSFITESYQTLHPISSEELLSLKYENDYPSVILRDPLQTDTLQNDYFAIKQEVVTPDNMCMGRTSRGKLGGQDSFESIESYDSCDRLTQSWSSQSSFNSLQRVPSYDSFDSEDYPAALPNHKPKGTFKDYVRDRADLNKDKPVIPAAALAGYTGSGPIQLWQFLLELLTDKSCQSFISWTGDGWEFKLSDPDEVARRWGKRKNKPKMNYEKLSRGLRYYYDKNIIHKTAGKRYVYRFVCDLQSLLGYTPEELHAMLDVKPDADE"}
{"Sequence": "ACATCCCA", "E-score": 0.251}
{"Sequence": "CATCCGCA", "E-score": 0.442}
{"Sequence": "GAGGCGGA", "E-score": 0.333}
{"Sequence": "ATCCCCAC", "E-score": 0.251}
{"Sequence": "TAAAGGGA", "E-score": 0.256}
{"Sequence": "AGAACGGA", "E-score": 0.287}
{"Sequence": "GCTTCCCC", "E-score": 0.347}
{"data": "Block 2", "target": "Histone acetyltransferase KAT6A, winged helix 1, GST fusion (KAT6A, Homo sapiens, UniProt Q92794, residues 1-85)", "technique": "protein binding microarray", "form": "double-stranded DNA, one strand shown", "sample": "in vitro", "tested at": "not given", "setting": "8-mer, flanks averaged, mean of 2 arrays, mostly near background", "reference": "not given", "direction": "higher = stronger binding", "Construct (chain)": "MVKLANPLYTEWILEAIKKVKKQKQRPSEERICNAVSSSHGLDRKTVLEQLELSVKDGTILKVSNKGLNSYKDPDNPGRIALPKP"}
{"Sequence": "CTATTTTC", "E-score": -0.163}
{"Sequence": "GAGGGCAC", "E-score": -0.196}
{"Sequence": "AATACTAG", "E-score": -0.12}
{"Sequence": "AAGGAGTG", "E-score": -0.0341}
{"Sequence": "CAGCTTCA", "E-score": -0.244}
{"Sequence": "GATGTGTA", "E-score": -0.078}
{"Sequence": "CAGCCCGC", "E-score": 0.194}
{"Sequence": "CTCTCGAA", "E-score": -0.273}
{"Sequence": "ACCCCGTG", "E-score": 0.321}
{"data": "Block 3", "target": "Ras GTPase-activating protein-binding protein 1, RRM domain (G3BP1, Homo sapiens, UniProt Q13283)", "technique": "RNA Bind-n-Seq", "form": "RNA", "sample": "in vitro", "tested at": "1 µM", "setting": "whole 134-nt RNA, ends assumed", "together with": "150 mM KCl", "reference": "input library", "direction": "higher = stronger binding", "constant ends, left off below": "GGGAGUUCUACAGUCCGACGAUC … UGGAAUUCUCGGGUGUCAAGG", "sequence of UniProt Q13283 (whole entry, looked up)": "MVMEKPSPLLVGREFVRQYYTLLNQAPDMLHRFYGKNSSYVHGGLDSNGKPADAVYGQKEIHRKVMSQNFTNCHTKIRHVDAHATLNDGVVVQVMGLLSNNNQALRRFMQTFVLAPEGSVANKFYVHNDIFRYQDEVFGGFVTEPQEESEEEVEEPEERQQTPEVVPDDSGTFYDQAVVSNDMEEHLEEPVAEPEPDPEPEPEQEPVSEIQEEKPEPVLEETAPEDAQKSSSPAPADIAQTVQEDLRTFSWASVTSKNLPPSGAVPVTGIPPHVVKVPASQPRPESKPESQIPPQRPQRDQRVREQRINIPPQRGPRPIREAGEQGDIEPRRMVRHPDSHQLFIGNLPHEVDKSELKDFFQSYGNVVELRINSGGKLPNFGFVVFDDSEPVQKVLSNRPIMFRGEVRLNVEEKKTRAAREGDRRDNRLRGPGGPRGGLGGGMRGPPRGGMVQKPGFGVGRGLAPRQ"}
{"Sequence": "CAAGUCCUGUGCUACACAUCGUAUGUACCGAAUCGGGCCCGGCCCGGGCCCGGGGAAAGUAUUAUGUUACGCCGUUCGGAUCUGCACUUC", "log2 enrichment": -0.466}
{"Sequence": "UCAAGUCCUGUGCUACACAUCGUAUGUACCGAAUCGGAAAGGUGGAAAAAAAGGAAAGUAUUAUGUUACGCCGUUCGGAUCUGCACUUCC", "log2 enrichment": -0.107}
{"Sequence": "UGGACGAUGAAGAGGAAACAAUUGAAGAGGAGGAAGCAAAUGAAGGCGUUGUGGACCACCAAACAGAACUUUCUAAUUUAGCCAAGGAAG", "log2 enrichment": -0.0753}
{"Sequence": "CCUCAAGUCCUGUGCUACACAUCGUAUGUACCGAAUCGGUGGGGUGGGGUGGAAAGUAUUAUGUUACGCCGUUCGGAUCUGCACUUCCAG", "log2 enrichment": -0.204}
{"Sequence": "CCUGUGCUACACAUCGUAUGUACCGAAUCGGGGCCCCCCGGGGCCCCCCGGCCCCCCGGGGAAAGUAUUAUGUUACGCCGUUCGGAUCUG", "log2 enrichment": -0.646}
{"Sequence": "CCUGUGCUACACAUCGUAUGUACCGAAUCGGCCCCCCCGGCCCCCCCGGGGCCCCCCCGGGAAAGUAUUAUGUUACGCCGUUCGGAUCUG", "log2 enrichment": -0.639}
{"Sequence": "GCAGGAAGUAAAAACAAAUGGAAAUGCUUCGGAUAGUGGCAGGGGUGGGGGUUGCGAAGGAAAGGGUGGGAUGGGAGUGGGUAAAGAGUU", "log2 enrichment": 1.61}
{"Sequence": "UCAAGUCCUGUGCUACACAUCGUAUGUACCGAAUCGGAGGUUUUUUUGGUUUGGAAAGUAUUAUGUUACGCCGUUCGGAUCUGCACUUCC", "log2 enrichment": -0.409}
{"Sequence": "CACAGACAACACGCACACACACAGACACAGAGGGAAGGGGUUGGGAUGGGGACAGGGUGCACAGCAGGGCGGGGUAGGACCCCAGCCCCU", "log2 enrichment": 0.345}
{"Sequence": "CUGUGCUACACAUCGUAUGUACCGAAUCGGGGAAAAAAAGGGAAAAAAAGGAAAAAAAGGGGAAAGUAUUAUGUUACGCCGUUCGGAUCU", "log2 enrichment": 0.116}
{"Sequence": "CACAGACAACACGCACCCACACAGACACAGAGGGAAGGGGUUGGGAUGGGGACAGGGUGCACAGCAGGGCGGGGUAGGACCCCACCCCCU", "log2 enrichment": -0.342}
{"Sequence": "GCAGGAAGUAAAAACAAAAGGAAAUGCUUCGGAUAGUGGCAGGGGUGGGGGUUGCUAAGGAAAGGGUGGGAUGGGAGUGGGUAAAGAGUU", "log2 enrichment": 1.46}
{"data": "Further values, each from its own experiment"}
{"Molecule": "PhoQ, residues 284 288 289 292 302 303 MLMVEA", "target": "PhoP, residues 12 14 15 18 19 GQALL (Escherichia coli, UniProt P23836)", "assay": "Sort-seq, item: YFP reporter", "test system": "E. coli", "setting": "PhoQ-PhoP variant library, together with: 10 µM Mg2+", "how to read": "reference: high Mg2+ state, higher = stronger signaling", "quantity": "fold induction", "result": 20}
{"note": "Some of these lines once more (block 2):"}
{"Sequence": "GATGTGTA", "E-score": -0.078}
{"Sequence": "CAGCCCGC", "E-score": 0.194}
{"Sequence": "CTCTCGAA", "E-score": -0.273}
